Experimental data from different studies.
Numbered parts are unrelated; each lists some results of a single study. Substitutions count along the parent as printed.

Set 1
Target: DDIT3, bZIP domain (human)
Method: DHFR protein complementation
Matrix: yeast
Notes: single substitutions, most at no-binding floor
Relative to: wild-type JUN-FOS pair
Reading: higher = stronger binding
Starting sequence: JUN, bZIP domain (human); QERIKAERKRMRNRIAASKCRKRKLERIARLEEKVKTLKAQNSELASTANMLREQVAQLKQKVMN; partner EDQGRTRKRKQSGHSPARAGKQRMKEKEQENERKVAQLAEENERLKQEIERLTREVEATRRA
Change	binding fitness [natural log]
V35T	-0.523
T37K	0.0665
Q41E	0.12
A29E	-0.0967
T37D	0.084
E33F	-0.142
R53F	-1.08
L45P	-1.19
T48H	0.0538
E54G	-0.0847
Q55D	-0.662
T48R	0.146
A40R	0.0719
K36L	0.0103
L38M	-0.126
I28E	-0.106
R53C	-0.765
L45G	-1.26
E54S	-0.138
K34T	0.0969
M51I	-0.0533
L52V	-1.06
E54D	-0.108
R30W	0.102
T48D	-0.574

Set 2
Target: RING finger protein unkempt homolog, zinc fingers 1-6, GST-SBP tag (UNK, Homo sapiens, UniProt Q9C0B0, residues 30-357)
UniProt Q9C0B0, sequence (30-357, looked up): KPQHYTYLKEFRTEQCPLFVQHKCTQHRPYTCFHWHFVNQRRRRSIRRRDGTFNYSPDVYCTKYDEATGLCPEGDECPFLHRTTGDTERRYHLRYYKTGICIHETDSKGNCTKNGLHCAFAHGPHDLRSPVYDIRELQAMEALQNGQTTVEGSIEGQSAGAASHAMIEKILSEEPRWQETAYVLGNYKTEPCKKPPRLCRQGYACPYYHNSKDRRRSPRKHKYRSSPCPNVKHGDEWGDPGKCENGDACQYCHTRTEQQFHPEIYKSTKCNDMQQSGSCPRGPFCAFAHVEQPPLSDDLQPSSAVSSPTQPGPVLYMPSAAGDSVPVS
Method: RNA Bind-n-Seq
Molecule type: RNA
Matrix: in vitro
Tested at: not given
Notes: RNA with constant flanks, ends assumed
Relative to: input RNA pool
Reading: higher = stronger binding
Shared flanks, not repeated: GGGAGUUCUACAGUCCGACGAUC … CAACAGAGGAUUGAGCAUCA
Strand	bound/input enrichment
CCUGAAUUCUUGGUCUAUUUUCCAUUGCUAAAUGAAAUGGCAAAGAAGUACAAUAUGAAACCCGUCUACAAAAAAACAUUUCUGGAAUUCUACGAAGAAAAGAUUAAGAACAAUGAAAAU	0.278 ratio
GUACUGCUGGUCCUGUACCAGAAACAUUUUCUUUUAUUGUUACUUGCUUUUUAAACUUUGUUCCGCCACUUAAAAUCUGCUUAUGGCACAAUUUGCCUCAAAAUCCAUUCCAAGUUGUAU	0.514 ratio
UUGACAUUACAGCCAAGAUGGUGCUGUCCCAGAGACAACGAGAUGAACUAAAUCGAGCUACCGCAGAUUAUCUUCGUUCAAAUGGCUAUGAAGAGGCAUAUUCAGUUUUUAAAAAGGAAG	0.191 ratio
GGGAGGAAUGAAUUUAUCUAGCAAGCUGGCCCAGCUCACUUGUCAUGGCAAUCUUUGCCACCGCUUUCAGUCUUUCAACACUUCCUACACAGAUACAGGAUUAUGGGGACUGUAUAUGGU	0.287 ratio
ACAGCUGAUUCACUCAUUGGGAGAGCUGCACAUAUAGCUGUUCUUGAUUCGGAAAUAUUUUCCGAGAAAUUCUUUCUGGUUGCUGCCCUCAAAUAUUUCCAAUAGUAUAAAAGCAUUGUU	1.04 ratio
AAUCUUGGAAUGAGUUCUUCAUUGAAUCAACAAGGAGCUCAUAGUGCACUGUCUUCUGCCCGUACUUCUUCCCAUAAUUUGCAGUCUAUAUUUAACAUUGGAAGUAGAGGUCCACUCCCU	0.414 ratio
GGUCUAAACAAAUGUGAAGUUAGUCAUAGGCGAGCCUUUCAUGGCUGGAAUGAGUUUGAUAUCCGUGAAGAUGAGCCACUGUGGAAGAAGUAUAUUUCUCAGUUUAAAAAUCCCCUUAUU	0.388 ratio
AGACAUGUCCUCACGUACAUGGAGGAUGCAGUGUGCCAGCUGCUGGAGAACAGGGAGGAUAUCCGCCAGUAUGGCAUUGCCCGGUUCUUCACUGACUAUUUUAACAGCGUAUGCCAAGGA	0.109 ratio
CGAGUGGAUCAGGGGGCUGCAACAGCUCUCAGAAAGGAGAAUACCAGCAACAUCUUUUACCGCAAAAAUACUGACUAUCCUGAACUUCAGCAGCAAAACACAGAUUCAAAUUACCAGACC	0.275 ratio
UGAAGAUCUGUACCUGUGCACAGUGAGCUUCAAAACAAAACACAAUUGAGCUUACGUUUGUCCGCAGGCGUAGAGUAUUCAUUACGUAAUGAAGUACUUAAGCAGCUACAGGGAAGUAUU	0.162 ratio
UUCAAAGAGAAAACCCAGCAGUGGAAGUUGCUUGGCCAAUCCCAAGAUAAUGAAAAGGAAUCCGCUGCCCUCUUCCAGCUAUGGCUAGAGACCAAAGAUCAGGCCUUCUGUAAGCAAGAA	0.147 ratio

Set 3
Target: RNA binding protein fox-1 homolog 2, RRM domain, GST-SBP tag (RBFOX2, Homo sapiens, UniProt O43251-10, residues 100-194)
Method: RNA Bind-n-Seq
Molecule type: RNA
Matrix: in vitro
Tested at: 365 nM
Notes: natural RNA segment, single round, ends assumed
Relative to: no-protein control
Reading: higher = stronger binding
Shared flanks, not repeated: GGGAGUUCUACAGUCCGACGAUC … UGGAAUUCUCGGGUGCCAA
Residues (chain): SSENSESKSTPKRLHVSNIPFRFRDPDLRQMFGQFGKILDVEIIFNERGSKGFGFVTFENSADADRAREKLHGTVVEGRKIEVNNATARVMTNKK
Strand	RBNS enrichment (R)
AAGAAAGUGGACAGGAUGCUACUGAGGGACAGAGAAGUUAGCUUUUCUUGAGAGCGGCCUGGGGUGGUUGGGUUGGAAGAAGCUGCUGCAGCGGCUAUAGUCAGAAGCCC	0.977
GCCUUCUGCAGCAGGUAGGCUUGCUUCUGUUAGCUCUGCCUGGAUGCCUUUGUUCCAGAAGGCAUCAGGCCUCUAAAGACUGUCUCACAAGUGAUGCCCUUCUGGAGACU	0.232
GACCAGGGUGGCCUGCAGUGGUGCCUGGGUAGGGCCGCUCCUCUGGGGCCCUGUGCCCAGGCCCUGGGCUGGUUGCAGCCCAGCAGUGCCUCCUGCCCCUCCUGGAGUUC	0.203
CAGCCGGGAUGCUAGGCCUAAUUGUUCAGCGUGGAGAUGGCAACUCACGUGGUGCCCUAGGUGCAGCUGCGUGGUCUGGUAUACAUGCUGCAAAAUUCACCCAGUUCCCC	0.179
CUGUUUAUUUAAGAAACAUAUCUCUUCUUUCUAUGAAAAACAAAUUUUAAAGGCAAUUUAAGUUGCCUUUAGUUGACCGGUAAACUAAUCCAGUUGGAACAUACAUGCUU	0.371
AUCCAUAAACUAAGAGAAACUGUGUAUAGCUUACCUGAACAGGAAUCCUUACUGAUAUUUAUAGAACAGUUGAUUUCCCCCAUCCCCAGUUUAUGGAUAUGCUGCUUUAA	0.463
CUCACUGUCACCCUUUCUGCCUUGGUUUCCCUAGCUGAGCCACGCUGCCCAUGCAGCAGAGGGCAGAAGGCUUGCACUUGGGCCAAAGGGCCUAAGGUCCACUGGACAGU	0.383
UUAAUAGACAAAGUAAUAAAUCAUGUUUAUCUAUUGAUUUAAACUUCAUCAGUUUUGCAUCCUACUGAGAAAUGUUAGUGAUUUUGAUACUUAAAUCCUUAAAAGAUUGC	4.06
UUUCUAAGAAUAAGAGCUGGCAAAUGGGAAACUUGGGGUGGAGAGAGCAUACUUAUUGGGCUGUGAAGGCAUACGGAUGUACAUGUUUUAGAGCUUAUCUCAGAUUUAAA	1.45
ACGGGGAACGCACCAUUUCUGAAACUAUCGAGCGGCUACAGCAGCUCAAAGAGUUCCGCAGCAAACAGGCAGAAGAAGAAUUUUAAUGAAAAAAUUACCCAGAUUGGCUC	0.258
GAGGUCUUUUAAUCUGAUGUUCUCAGAAGGGGGUGGAUUUAAAUCCUGAAAUAAAUAUUUCAACACAGAACACAGGCCUGAUUCUGCCUUGGACAUGUCAAAAUCUGGGG	0.619
CAAAUGUUCUUAAAGACUUUUUGCUAUGUAGUAUCUACCUUGUAGAAACCUUGCAGAUUGCAGAGUUGAGAUGUGUUUUAUCUUUGUUUUAUAUUAAAAAGAUCUGUGGG	0.537

Set 4
Target: Ras GTPase-activating protein-binding protein 1, full length (G3BP1, Homo sapiens, UniProt Q13283)
UniProt Q13283, sequence (whole entry, looked up): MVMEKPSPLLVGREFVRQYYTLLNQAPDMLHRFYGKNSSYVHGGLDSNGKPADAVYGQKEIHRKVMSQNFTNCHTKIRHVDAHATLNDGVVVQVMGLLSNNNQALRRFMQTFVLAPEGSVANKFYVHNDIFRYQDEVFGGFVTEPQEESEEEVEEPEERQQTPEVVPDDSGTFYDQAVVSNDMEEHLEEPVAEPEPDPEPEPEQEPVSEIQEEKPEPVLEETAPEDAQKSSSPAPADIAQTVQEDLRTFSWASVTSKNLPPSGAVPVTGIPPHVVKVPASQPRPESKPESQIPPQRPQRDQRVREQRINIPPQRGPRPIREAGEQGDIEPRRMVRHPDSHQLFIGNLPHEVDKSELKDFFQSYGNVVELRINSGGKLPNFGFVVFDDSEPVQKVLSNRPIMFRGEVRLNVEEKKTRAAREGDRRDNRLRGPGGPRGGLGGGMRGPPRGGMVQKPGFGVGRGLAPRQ
Method: RNA Bind-n-Seq
Molecule type: RNA
Matrix: in vitro
Tested at: 200 nM
Notes: whole 134-nt RNA, ends assumed
Added: 150 mM KCl
Relative to: input library
Reading: higher = stronger binding
Shared flanks, not repeated: GGGAGUUCUACAGUCCGACGAUC … UGGAAUUCUCGGGUGUCAAGG
Strand	log2 enrichment
CACAGAAAACACGCACCCACACAGACACAGAGGGAAGGGGUUGGGAUGGGGACAGGGUGCACAGCAGGGCGGGGUAGGACCCCAGCCCCU	1.74
UCCUCAAGUCCUGUGCUACACAUCGUAUGUACCGAAUCGGAGGAAAGGAGGAAAGUAUUAUGUUACGCCGUUCGGAUCUGCACUUCCAGC	-0.678
UAACUUUAGAGGAGGAUCUGAUGGAUAUGGCAGUGGACGUGGAUUGGGGGAUGGCUAUAAUGGGUAUGGAGGAGGACCUGGAGGUGGCAA	0.447
GUCCUGUGCUACACAUCGUAUGUACCGAAUCAAAUUUAAACCCCCAAAUUUUUUUAAAAAAGUAUUAUGUUACGCCGUUCGGAUCUGCAC	0.0629
ACCAUGCAGGUGGGCAUCUUUGGGAAGUGGGGCACGGGGGGGAUAGGGAGGGGGGUAACACUUUGGGAACAGGUGGUCCCAGGUCGUUUC	0.971
CCUGUGCUACACAUCGUAUGUACCGAAUCGGGUUUUUUUGGGUUUUUUUGGGUUUUUUUGGAAAGUAUUAUGUUACGCCGUUCGGAUCUG	-0.732
CAAGUCCUGUGCUACACAUCGUAUGUACCGAAUCGGGAAAGGAAAGGGAAAGGGGAAAGUAUUAUGUUACGCCGUUCGGAUCUGCACUUC	0.032
UGGCCCUGGUGGCAUGCGGGGAGGAAGAGGUGGCCUCAUGGAACGUGGUGGUCCCGGUGGAAUGUUCAGAGGUGGCCGUGGUGGAGACAG	0.202
UCAAGUCCUGUGCUACACAUCGUAUGUACCGAAUCGGUUUUUGGAAAGGAAAGGAAAGUAUUAUGUUACGCCGUUCGGAUCUGCACUUCC	-0.971
UAACUUUAGAGGAGGAUCUGAUGGAUAUGGCAGUGGACGUGGAUUUGGGGAUGGCUGUAAUGGGUAUGGAGGAGGACCUGGAGGUGGCAA	0.347
AAGUCCUGUGCUACACAUCGUAUGUACCGAAUCGGGGUGGGGAAAGGGGUUUGGGGAAAGUAUUAUGUUACGCCGUUCGGAUCUGCACUU	0.636
CACAGACAACACGCACCUACACAGACACAGAGGGAAGGGGUUGGGAUGGGGACAGGGUGCACAGCAGGGCGGGGUAGGACCCCAGCCCCU	1.79
CACAGACAACACGCACCCACACAGACACAGAGGGAAGGGGUUGGGAUGGGGACAGGGUGCACAGCAGGGCGAAAUAGGACCCCAGCCCCU	1.96
UGGCCCUGGUGGCAUGCGGGGAGGAAGAGGUGGCCUCAUGGAUCGUGGUGGUCCCGGUGGAAUGUUCACAGGUGGCCGUGGUGGAGACAG	0.0145

Set 5
Target: Histone acetyltransferase KAT6A, winged helix 2, GST fusion (KAT6A, Homo sapiens, UniProt Q92794, residues 85-181)
Method: protein binding microarray
Molecule type: double-stranded DNA, one strand shown
Matrix: in vitro
Tested at: not given
Notes: 8-mer, flanks averaged, mean of 2 arrays, mostly near background
Relative to: not given
Reading: higher = stronger binding
Target sequence (chain): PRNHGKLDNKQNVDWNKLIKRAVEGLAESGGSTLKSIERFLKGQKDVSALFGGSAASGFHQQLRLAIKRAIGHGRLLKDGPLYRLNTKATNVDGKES
Strand	E-score
AACTGAGC	0.0802
ATTATGAA	-0.068
CATTAAAG	0.05
ACATAGAG	-0.148
CGAAGAAA	0.137
CACAGTTC	-0.144
ATCAGACC	-0.156
GACGATTA	-0.0751
ACATCGTA	-0.124
CCCCAACC	-0.00692
CATAGAGC	-0.0669
ATGATAAG	-0.0794
CGTTCAAA	0.0431
ACGTTGTG	0.0441
ATCCGTAG	0.0358
CCTACGGC	0.0131
ACTGACAC	0.038

A few entries again (set 1):
Change	binding fitness [natural log]
E33F	-0.142
R53F	-1.08
L45P	-1.19
T48H	0.0538
E54G	-0.0847
Q55D	-0.662
T48R	0.146
A40R	0.0719
K36L	0.0103
